Published values from different studies.
Compare with care: the assays were run in different laboratories. ± gives the spread as reported.

| Structure (SMILES) | assay | system | setting | scale | endpoint | result |
| --- | --- | --- | --- | --- | --- | --- |
| COc1cc2c(Oc3ccc4[nH]c(C)cc4c3F)ccnc2cc1OCC1(N)CC1 |  | paediatric recurrent refractory sarcoma | 12 mg |  | Hypertension incidence | 9.1% |
| CCN1CCN(Cc2ccc(Nc3ncc(F)c(-c4cc(F)c5nc6n(c5c4)[C@H](C)CCC6)n3)nc2)CC1 |  | patients with advanced solid tumours | dose not given, phase Ia monotherapy |  | hypokalaemia all grades | 20.8% |
| O=C(O)CCCOc1ccc(F)cc1-c1cc(-c2ccccc2C(F)(F)F)n(-c2ccccc2)n1 | item: α2-glb | Crl:CD(SD) rats, male, serum | iv, 25 µg/kg, 14 days |  | serum protein fraction | 9.3 ± 1% |
| Cn1cc(-c2nc(N[C@@H]3CCCC[C@@H]3N)c(F)c3c2C(=O)NC3)cn1 | item: Gastrointestinal haemorrhage | patients with relapsed or refractory AML | oral, 60 mg twice daily |  | hemorrhagic adverse events | 13% |
| COc1ccc(-c2c(-c3ccc(C#N)c(F)c3)nc(N3CCC(N)CC3)n(C)c2=O)cc1F | item: Hypokalemia | human patients | oral, 60 mg, dose expansion |  | serious adverse event incidence | 0% |
| CCc1ccc(CC/C=C/c2ccc3c(c2)C(=O)CC3)cc1 |  | Sprague-Dawley rat, female | oral, 120 mg/kg/day, 14 days |  | Globulin | 24 g/L |
| CCN1[C@@H](C(=O)NC23CCC(C(=O)O)(CC2)CC3)[C@H](c2cccc(Cl)c2F)[C@]2(C(=O)Nc3cc(Cl)ccc32)C12CCCCC2 |  | patients with advanced solid tumours | oral, 100 mg |  | nausea/vomiting incidence | 45.5% |
| O=S(=O)(Nc1ccccc1)c1ccc(NC(=S)Nc2ccccc2)cc1 | item: NE% | female mouse, blood | oral, 5 mg/kg daily, 14 days |  | blood cell fraction | 18.8% |
| CCOC(=O)[C@](CC)(CCC[S+]([O-])CCOCCOCCNC(=O)OC(C)(C)C)NC(=O)c1ccc(C2CC2)c(Cc2ccc(F)cc2)n1 (stereo partly drawn) |  | PAMPA |  |  | Papp | 5.4 ×10⁻⁶ cm/s |
| COc1ccc2nc3cc(Cl)ccc3c(Nc3cc(CN4CCCC4)c(O)c(CN4CCCC4)c3)c2n1 |  | mouse, blood | intraperitoneal, 14 mg/kg |  | blood pH | 7.54 |
| COc1ncccc1-c1cnn2ccc(N3CCN(C(=O)OC(C)C)CC3)nc12 |  | rat, thermal hyperalgesia model, plasma | oral, 30 mg/kg, 180 min |  | drug concentration | 2400 nM |
| O=C(NCCN1CCCC1)c1cc(-c2ccc(CN3CCOCC3)cc2)nc2ccc(F)cc12 |  | NMRI mouse Plasmodium berghei-infected, blood | oral, 0.6 mg/kg, 24 h, monotherapy |  | concentration at 24 h | 11 nM |
| CC(C)[C@@H]1NC(=O)CNC(=O)[C@H](CC(N)=O)NC(=O)[C@H](CCCNC(=N)N)NC(=O)[C@H](Cc2ccc(O)cc2)NC(=O)[C@H](C(C)C)NC(=O)[C@@H](NC(=O)[C@@H](NC(=O)[C@H](CC(N)=O)NC(=O)[C@H](Cc2c[nH]c3ccccc23)NC(=O)[C@H](C)NC(=O)[C@H](Cc2ccccc2)NC(=O)CN)C(C)C)CSSC[C@@H](C(=O)N[C@@H](Cc2cnc[nH]2)C(=O)N[C@@H](CCCNC(=N)N)C(=O)N[C@@H](CCCNC(=N)N)C(=O)N[C@@H](C)C(=O)N[C@@H](CC(N)=O)C(N)=O)NC(=O)[C@H](C(C)C)NC(=O)[C@H](CCCNC(=N)N)NC1=O |  | ICR mouse, blood | intramammary, 10 mg/kg, day 5, 3 d dosing |  | MCH | 13.5 ± 0.28 pg |
| Cc1c(COC(=O)[C@@H]2[C@H](/C=C(\Cl)C(F)(F)F)C2(C)C)cccc1-c1ccccc1 (racemic) | item: CYP2C19 | human, age 5 years, recombinant human CYP2C19 | 0.1 µM |  | enzyme contribution to clearance | 54.4% |
| CC(=O)c1c(C)c2cnc(Nc3ccc(C4CCN(CCS(C)(=O)=O)CC4)cn3)nc2n(C2CCCC2)c1=O |  | HR+/HER2- advanced breast cancer patients | oral, dose not given, grade 3/4, total |  | patients with platelet count decreased | 1.2% |
| CC[C@H](C)[C@H](NC(=O)[C@H](Cc1ccccc1)NC(=O)[C@H](CCC(=O)O)NC(=O)[C@H](CCCNC(=N)N)NC(=O)[C@H](C)NC(=O)[C@H](C)NC(=O)[C@H](CCC(N)=O)NC(=O)[C@H](CCC(=O)O)NC(=O)[C@H](CCC(=O)O)NC(=O)[C@H](CC(C)C)NC(=O)[C@H](Cc1ccc(O)cc1)NC(=O)[C@H](CO)NC(=O)[C@H](CO)NC(=O)[C@@H](NC(=O)[C@H](CC(=O)O)NC(=O)[C@H](CO)NC(=O)[C@@H](NC(=O)[C@H](Cc1ccccc1)NC(=O)[C@@H](NC(=O)CNC(=O)[C@H](CCC(=O)O)NC(=O)[C@H](C)NC(=O)CCc1cnc[nH]1)[C@@H](C)O)[C@@H](C)O)C(C)C)C(=O)N[C@@H](C)C(=O)N[C@@H](Cc1c[nH]c2ccccc12)C(=O)N[C@@H](CC(C)C)C(=O)N[C@H](C(=O)N[C@@H](CCCNC(=N)N)C(=O)NCC(=O)N[C@@H](CCCNC(=N)N)C(=O)N[C@@H](CCCCNC(=O)COCCOCCNC(=O)COCCOCCNC(=O)CC[C@H](NC(=O)CCCCCCCCCCCCCCCCC(=O)O)C(=O)O)C(=O)NCC(=O)NCC(=O)N[C@@H](CO)C(=O)N[C@@H](CCCCNC(=O)[C@H](CCCCNC(=O)[C@H](CCCCNc1c(NCCCCCN(O)C(=O)CCC(=O)NCCCCCN(O)C(=O)CCC(=O)NCCCCCN(O)C(C)=O)c(=O)c1=O)Nc1c(NCCCCCN(O)C(=O)CCC(=O)NCCCCCN(O)C(=O)CCC(=O)NCCCCCN(O)C(C)=O)c(=O)c1=O)NC(=O)[C@H](CCCCNc1c(NCCCCCN(O)C(=O)CCC(=O)NCCCCCN(O)C(=O)CCC(=O)NCCCCCN(O)C(C)=O)c(=O)c1=O)Nc1c(NCCCCCN(O)C(=O)CCC(=O)NCCCCCN(O)C(=O)CCC(=O)NCCCCCN(O)C(C)=O)c(=O)c1=O)C(=O)O)C(C)C [zirconium-89 labelled] | ex vivo gamma counting | male Sprague-Dawley rats, lung | intravenous, 1 nmol, 24 h |  | tissue uptake | 0.606 %ID/g |
| COc1ccc(CCC2CCCC(CCc3ccc(OC)cc3)N2C[C@@H](O)CO)cc1.Cl (stereo in doubt) |  | rabbit Purkinje fibres | 0.03 µM, cycle length 1 s | baseline: baseline | APD90 change | 10.4 ± 0.8% |

| Structure (SMILES) | assay | system | setting | scale | endpoint | result |
| --- | --- | --- | --- | --- | --- | --- |
| O=C1O[C@H]2[C@@H]3OC(=O)c4cc(O)c(O)c(O)c4-c4c(O)c(O)c5oc(=O)c6c(c(O)c(O)c7oc(=O)c4c5c76)-c4c(cc(O)c(O)c4O)C(=O)OC[C@H]3OC(O)[C@@H]2OC(=O)c2cc(O)c(O)c(O)c2-c2c1cc(O)c(O)c2O (mixture of isomers) | subacute oral toxicity | BALB/c mice | oral, 1000 mg/kg/day, 28 days |  | liver weight | 1.4 g |
| O=C(Nc1ccccc1)C1CCN(C(=O)Oc2cccnc2)CC1 | item: metabolism and nutrition disorders | healthy women | oral, 20 mg, 7 days |  | subjects with adverse event | 0% |
| N[C@@H]1c2ccccc2OC12CCN(c1cnc3c(N4CCCc5ncccc54)n[nH]c3n1)CC2 |  | advanced metastatic solid tumour patients | oral, 75 mg once daily, cycle 1, 21 days |  | dose-limiting toxicity | 14.3% |
| O=C1Nc2cc3[nH]nc(-c4ccncc4)c3cc2CN1Cc1ccccc1 | CTCAE v4.03 | human, relapsed or refractory advanced solid tumours | intravenous, 0.45 mg/kg, pooled schedules |  | patients with QTc prolongation | 0% |
| Clc1ccc(-c2ccccc2)cc1 |  | rat Sprague-Dawley female, serum | inhalation, 23 µg/rat, 1 h |  | serum free thyroxine | 38 ± 4 pmol/L |
| C[C@@H]1NC(=O)[C@H](CCCCNC(=O)CO/N=C/C(=O)NCCCC[C@@H]2NC(=O)[C@@H](Cc3ccccc3)NC(=O)[C@H](CC(=O)O)NC(=O)CNC(=O)[C@H](CCCNC(=N)N)NC2=O)NC(=O)CNC(=O)[C@@H]2CCCN2C(=O)[C@H](CCCCNC(=O)CO/N=C/C(=O)NCCCC[C@@H]2NC(=O)[C@@H](Cc3ccccc3)NC(=O)[C@H](CC(=O)O)NC(=O)CNC(=O)[C@H](CCCNC(=N)N)NC2=O)NC(=O)[C@H](CCCCNC(=O)[C@H](CCCCN)NC(=O)[C@H](Cc2ccccc2)NC(=O)CNC(=O)CN2CCCNCCNCCCNCC2)NC(=O)[C@H](CCCCNC(=O)CO/N=C/C(=O)NCCCC[C@@H]2NC(=O)[C@@H](Cc3ccccc3)NC(=O)[C@H](CC(=O)O)NC(=O)CNC(=O)[C@H](CCCNC(=N)N)NC2=O)NC(=O)CNC(=O)[C@@H]2CCCN2C(=O)[C@H](CCCCNC(=O)CO/N=C/C(=O)NCCCC[C@@H]2NC(=O)[C@@H](Cc3ccccc3)NC(=O)[C@H](CC(=O)O)NC(=O)CNC(=O)[C@H](CCCNC(=N)N)NC2=O)NC1=O [copper-64 labelled] | biodistribution after PET | mouse, U-87 MG tumour xenograft, liver | intravenous, 24 h |  | tissue uptake | 35 ± 3.07 %ID/g |
| Nc1nc2cc(-c3ccc4ncc(C(=O)N5CCOCC5)n4c3)ccc2o1 |  | advanced solid tumour patients | dose not given | baseline: patients | serious AEs | 42% |
| [O-][S+]1CCc2nc(N3CCC(c4ncc(Cl)cn4)CC3)nc(NC3(CO)CCC3)c21 (stereo not drawn) | item: Diarrhoea | healthy male humans | single dose, all groups |  | adverse event incidence | 8.3% |
| COc1ccnc(C(=O)N[C@H]2COC(=O)[C@H](Cc3ccccc3)[C@@H](OC(=O)C(C)C)[C@H](C)OC2=O)c1OCOC(=O)C(C)C |  | pond water | 0.1 mg/L, 21.0 °C, whole system, aerobic mineralisation |  | DT50 | 0.11 days |
| CO[C@H]1C[C@@H]2CC[C@@H](C)[C@@](O)(O2)C(=O)C(=O)N2CCCC[C@H]2C(=O)O[C@H]([C@H](C)C[C@@H]2CC[C@@H](OC(=O)NCCOCCOCCOCCOCCOCCOCCOCCOCCC(=O)N3CCc4cc(Cn5nc(-c6ccc7oc(N)nc7c6)c6c(N)ncnc65)ccc4C3)[C@H](OC)C2)C[C@@H](O)[C@H](C)/C=C(\C)[C@@H](O)[C@@H](OC)C(=O)[C@H](C)C[C@H](C)/C=C/C=C/C=C/1C | phase 1 dose escalation, item: decreased appetite | advanced solid tumour patients | intravenous, 16 mg weekly, grade ≥3 |  | TRAE incidence | 0% |
| O[C@H]1CCCN[C@@H]1CCCn1cnc2c(Cl)c(Cl)ccc21 |  | healthy volunteers, plasma | oral, 150 mg twice daily, added: pirfenidone 600 mg |  | AUCtau geometric LS mean | 1280 ng·h/mL |
| NCCCC[C@@H]1NC(=O)[C@@H](Cc2c[nH]c3ccccc23)NC(=O)[C@H](c2ccccc2)NC(=O)[C@@H]2C[C@@H](OC(=O)NCCN)CN2C(=O)[C@H](Cc2ccccc2)NC(=O)[C@H](Cc2ccc(OCc3ccccc3)cc2)NC1=O |  | healthy human volunteers | 600 µg twice daily |  | subjects with decreased appetite | 4% |
| O=c1ccc2ccc3occc3c2o1 | three freeze-thaw cycles | rat plasma | 200 ng/mL, -70 °C freeze |  | accuracy | 92.2% |
| C[C@]1(CO)Cc2ncn(-c3ccc(C#N)c(Cl)c3)c2C(=O)O1 |  | human | 40 mg single dose |  | subjects with severe TEAEs | 0% |
| C[C@@H](NC(=O)N1C(=O)[C@H](Cc2ccnc(N)c2)[C@H]1C(=O)O)C1CCCCC1 |  | healthy adult Chinese volunteers | continuous intravenous infusion, 0.6 mg/kg/h, 5-day infusion, CTCAE 5.0 grading |  | incidence of mild AEs | 87.5% |
| C[C@]1(O)C[C@@](N)(c2ccc(-c3nc4n(c3-c3ccccc3)COc3ccncc3-4)cc2)C1 |  | human, advanced or metastatic solid tumours | dose not given, all patients |  | patients with grade ≥3 AST increased | 5.9% |
